Assay results collected from several papers.
Numbered parts are unrelated; each lists some results of a single study. Substitutions count along the parent as printed.

Block 1 — technique: RNA Bind-n-Seq; molecule type: RNA; matrix: in vitro; concentration: 200 nM; notes: whole 134-nt RNA, ends assumed; with: 150 mM KCl; baseline: input library; reading: higher = stronger binding
Target: Ras GTPase-activating protein-binding protein 1, full length (G3BP1, Homo sapiens, UniProt Q13283)
Sequence of UniProt Q13283 (whole entry, looked up): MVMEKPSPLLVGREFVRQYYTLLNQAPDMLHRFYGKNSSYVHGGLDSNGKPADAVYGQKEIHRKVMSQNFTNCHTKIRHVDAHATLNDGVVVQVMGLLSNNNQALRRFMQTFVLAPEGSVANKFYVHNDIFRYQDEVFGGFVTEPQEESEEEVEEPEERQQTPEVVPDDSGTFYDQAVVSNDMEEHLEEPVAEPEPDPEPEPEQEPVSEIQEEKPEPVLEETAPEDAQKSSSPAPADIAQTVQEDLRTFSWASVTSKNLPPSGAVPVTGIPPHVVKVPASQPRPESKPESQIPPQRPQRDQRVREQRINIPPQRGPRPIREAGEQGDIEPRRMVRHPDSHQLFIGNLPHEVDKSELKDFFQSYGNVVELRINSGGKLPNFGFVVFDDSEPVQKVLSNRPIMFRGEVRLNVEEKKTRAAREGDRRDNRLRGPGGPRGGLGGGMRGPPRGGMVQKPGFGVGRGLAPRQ
All sequences stand within: GGGAGUUCUACAGUCCGACGAUC … UGGAAUUCUCGGGUGUCAAGG
| Sequence | log2 enrichment |
| --- | --- |
| AAGUCCUGUGCUACACAUCGUAUGUACCGAAUCAAAUUUUUAAAUUUAAACCCAAAAAAGUAUUAUGUUACGCCGUUCGGAUCUGCACUU | -0.468 |
| CUCAAGUCCUGUGCUACACAUCGUAUGUACCGAAUCGGGUUGGUUGGGUUGGGGAAAGUAUUAUGUUACGCCGUUCGGAUCUGCACUUCC | 0.741 |
| GUCCUGUGCUACACAUCGUAUGUACCGAAUCGGGGUGGGGUUUUUGGGGAAAAAGGGGAAAGUAUUAUGUUACGCCGUUCGGAUCUGCAC | 0.266 |
| CAAGUCCUGUGCUACACAUCGUAUGUACCGAAUCGGUUUUUUUGGUUUGGAAAGGAAAGUAUUAUGUUACGCCGUUCGGAUCUGCACUUC | -1.17 |
| UGGCCCUGGUGGCAUGCGGGGAGGAAGAGGUGGCCUCAUGGAUCGUGGUGGUCCCGGUGGAAUGUUCAGAGGUGGCCGUGGUGGUGACAG | 0.127 |
| CACAGACAACACGCACCCACACAGACACAGAGGGAAGGGGUUGGGAUGGGGACAGGGUGCACAGCAGGGCGGGGUAGCACCCCAGCCCCU | 1.92 |
| UCCUGUGCUACACAUCGUAUGUACCGAAUCGGGUUUUUUUGGGAAAGGGUUUUUUUGGGAAAGUAUUAUGUUACGCCGUUCGGAUCUGCA | -0.408 |
| AAGUCCUGUGCUACACAUCGUAUGUACCGAAUCGGCCCGGGGCCCGGGGCCCGGGGAAAGUAUUAUGUUACGCCGUUCGGAUCUGCACUU | -1.09 |
| UCAAGUCCUGUGCUACACAUCGUAUGUACCGAAUCGGGGUUUGGUUUGGGUUUGGAAAGUAUUAUGUUACGCCGUUCGGAUCUGCACUUC | -0.422 |
| UGGCCCUCAAGCACUGCACAGAGGCCCUUCUUUCUCUUGGCCAGUACUCCAUGGCAGACUUCACAGGGCCUUGUCCAUUGGAAAUAGAAC | -1.78 |
| UUGUGAUUAAGAUUUGUUCUUUUUCUCCCCUCUCUAUAGGAAGAUGAUCCCUAUGAUCUUGAAGAUGUUUCUGCACAGAAAUGAGGGAAA | 0.598 |
| GAGUCCGGUUCGUGUUCGUCCGCGGAGAUCUCUCUCAUCUCGCUCGGCUGCGGGAAAUCGGGCUGAAGCGACUGAGUCCGCGAUGGAGGU | -1.57 |

Block 2 — target: CCND2, cyclin fold, Cln2 fusion (human); technique: yeast growth competition, sequencing; matrix: yeast; notes: weak parent motif; baseline: not given; reading: higher = stronger binding
Parent: E2F1 docking peptide (human); PPVKRRLDLETDH; partner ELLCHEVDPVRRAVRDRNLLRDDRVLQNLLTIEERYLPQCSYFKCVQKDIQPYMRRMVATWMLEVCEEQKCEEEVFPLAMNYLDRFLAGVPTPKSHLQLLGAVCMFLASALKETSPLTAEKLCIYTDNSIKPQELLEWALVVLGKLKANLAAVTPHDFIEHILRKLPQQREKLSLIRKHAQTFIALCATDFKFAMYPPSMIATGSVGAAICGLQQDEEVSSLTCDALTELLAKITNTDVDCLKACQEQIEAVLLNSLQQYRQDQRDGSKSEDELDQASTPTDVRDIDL
| Variant | normalised enrichment score |
| --- | --- |
| PFVKRRLDLETDH [P2F] | 0.797 |
| PPVKIRLDLETDH [R5I] | 0.0909 |
| PPVKRRLDLETDM [H13M] | 0.347 |
| PPVERRLDLETDH [K4E] | -0.00739 |
| PYVKRRLDLETDH [P2Y] | 0.361 |
| PPVKRRTDLETDH [L7T] | 0.389 |
| PPVKGRLDLETDH [R5G] | 0.282 |
| PPVKRRLPLETDH [D8P] | 0.0446 |
| PPVKRRLDLGTDH [E10G] | 0.409 |
| PPVKRRLDLEGDH [T11G] | -0.0214 |
| PPVKFRLDLETDH [R5F] | -0.0301 |
| PPVKRDLDLETDH [R6D] | -0.279 |
| PPVKRRLDLEDDH [T11D] | -0.0782 |
| PWVKRRLDLETDH [P2W] | -0.0951 |
| PPVKRHLDLETDH [R6H] | 0.364 |
| PPVKRRLDLETDD [H13D] | 0.412 |
| PPVKERLDLETDH [R5E] | 0.37 |
| PPVKRRRDLETDH [L7R] | -0.338 |
| PPVKRRLDLLTDH [E10L] | 0.308 |

Block 3 — technique: RNA Bind-n-Seq; molecule type: RNA; matrix: in vitro; concentration: 365 nM; baseline: no-protein control; reading: higher = stronger binding
Target: RNA binding protein fox-1 homolog 2, RRM domain, GST-SBP tag (RBFOX2, Homo sapiens, UniProt O43251-10, residues 100-194)
Notes: natural RNA segment, single round, ends assumed
All sequences stand within: GGGAGUUCUACAGUCCGACGAUC … UGGAAUUCUCGGGUGCCAA
Construct (chain): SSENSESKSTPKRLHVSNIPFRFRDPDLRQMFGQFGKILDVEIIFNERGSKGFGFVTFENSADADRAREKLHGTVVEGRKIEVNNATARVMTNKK
| Sequence | RBNS enrichment (R) |
| --- | --- |
| UGUGAAUCUGUAUAUUAUUCUGAUGGAUACAGAUAAUGAUCUUUUCUCUUGUGAGGUAUCUUCAUUUAUGCACUGUCCAAAAAUAGCCAUGUGUAAGAGUCUUUCUGUAU | 0.411 |
| CCAGCGUGUGUACACAUAAACCUUAACAAGACUACAAGUAUAUUCCAGAAGGAAAUCAUUUUAGUUAUGAACUAAAUAAUAAAAAUUAGAACUUCAAAUGCGAUGGUCUU | 0.346 |
| UCUCUGGCUGGCCGCCUGCGUCCCAGAGCACCAGAGUCCCUUCCCGACAGGCUAGGGUUAGGCAAUGUACCACAGGCCUGAUAGUCCCUGGCUCCUAGCUGCCCAUAGGC | 0.579 |
| UUGAGCUAAAAUAACUUUUGUAAAGAUUAAGCUCAUUUAGAUUUUUUUUAAAGUAUUGCAGCAGGAUCUGCUGCAGGGUUCUGUUGUUUUGUUUUGCUUAUUUUUAAAUU | 1.12 |
| UAGCAAAAUUUCUAUUUGUACGUUCACUAAUUAUCUACAAGGACAAAAUCAGUUGUAUUUACAAAACUCUACUUCAGUGUUUGUUUUAGUUUUUUUUUUUACUGAAACUU | 0.636 |
| ACGGGAGCUUGGAGAACGUUUUCUAGAAAAGGGUUAGCUUCCUGUUGGCAUGAAAUUUUCCAAGCAAACCUCAUUAAACAUCUGUUGUUUGUUAAAGAUGUUCCACUGAA | 0.801 |
| UUGUUAAAGAUGUUCCACUGAAAGCAACGCAUGUUUCAAAGGCACGUCUUUCCGUUCGUUGGUUUUCUGUGUGUAAGGAGUAGCAUUGCUGUUGGCGCCUAACCUCGCGU | 7.54 |
| ACAGCUUUUAACUAAGUUUGUUGUAGGAGAAAUGACUGCGGUAAUUUCCAGUUCUAUAAUGUUUCAUGUUGAGCCAAAAGAGUAUAUCUUGCACUUUAAAAACGCUGCGU | 0.558 |
| GUCUUGAAGGUGUUCCCCACCCCGCCCAGGGGCUUGCACUUGGAGGACUACAGCACACCUGGUUUCCUUUCUUUCUGCCACAGAUCCUUCACAGACGAGAGACUGUUGUC | 0.51 |
| GCACUUGAAAACCAACACACUCAGAAAAAGCCACAGAUUGUUAAAAGCCUAAUUGUAGUUCGUAACAAUUUGUCAGUACGUACUAAUUGCCUUAUUCUUCAGCUAGUGGU | 0.366 |
| UUGGGUGUGGGGAAAAAUUUUUUUCUGAAGGCUCAAAAGUGGUUUCCUAAAAGUGAGCCACUAUCAGAUUUGCACAUCAGGAGAAAAGAAAUAGGGUUACGUCCAUUAGG | 0.668 |
| GAUAAUUGAAACAUGUUAAAACAUUUAAUAUUGUAUAGGAUAUUGCUAAUUGUGUAUAUGUUGGUUUAAUUAUUAAUUAUGUACUAAGAAUGUCCUUAUUCUUGUGGUUA | 0.493 |

Block 4 — technique: DHFR PCA, deep sequencing; matrix: yeast; with: (+)-ABA 17 µM; baseline: wild-type fitted maximum; reading: higher = stronger binding
Target: ABI1, truncated, D143A, DHFR fusion (Arabidopsis thaliana)
Notes: methotrexate growth selection, single substitutions
Parent: PYL1, truncated, DHFR fusion (Arabidopsis thaliana); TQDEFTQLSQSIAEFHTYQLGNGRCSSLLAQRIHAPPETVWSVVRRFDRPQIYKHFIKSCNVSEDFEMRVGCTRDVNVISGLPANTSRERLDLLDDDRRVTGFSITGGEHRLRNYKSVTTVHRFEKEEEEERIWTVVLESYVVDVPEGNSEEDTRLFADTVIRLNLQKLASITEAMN
| Variant | relative binding score [%] |
| --- | --- |
| E38N | 58.2 |
| V100C | 68.4 |
| N85A | 86.8 |
| L169C | -0.631 |
| L164K | 62.3 |
| E131C | 85.6 |
| C60P | 0.892 |
| L93V | 99.3 |
| R99L | 96.1 |
| C25Q | 8.55 |
| I162K | 2.88 |
| F157A | -5.51 |
| A35C | 65.6 |
| T6C | 82.4 |
| R98L | 72.9 |
| V100E | -13.6 |
| S26K | 58.4 |

Block 5 — technique: Spec-seq; molecule type: double-stranded DNA, one strand shown; matrix: in vitro; concentration: not given; notes: whole probe, mean of replicates; baseline: not given; reading: lower = stronger binding; all sequences stand within: GAGTCGTCTCGTCAGCAC … CCGTAGAGCACTCAGGTC
Target: POU, POU domain (Salpingoeca helianthica)
Residues (chain): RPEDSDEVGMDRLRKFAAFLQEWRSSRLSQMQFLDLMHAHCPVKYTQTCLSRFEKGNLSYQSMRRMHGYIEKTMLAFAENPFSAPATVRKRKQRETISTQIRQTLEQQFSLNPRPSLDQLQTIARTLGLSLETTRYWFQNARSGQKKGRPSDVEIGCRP
| Sequence | relative binding energy |
| --- | --- |
| ATGCTAAC | 0.72 ln ratio |
| ATGCAGAT | 1.16 ln ratio |
| ATCATCAT | 1.11 ln ratio |
| ATGGCGAT | 1.45 ln ratio |
| ATGGTAAT | 0.68 ln ratio |
| GCGATAAT | 0.251 ln ratio |
| ATGCAGCC | 1.35 ln ratio |
| ATTATTAT | -0.266 ln ratio |
| GGACTAAT | 0.615 ln ratio |

For quick reference, copied from above (block 4):
| Variant | relative binding score [%] |
| --- | --- |
| I162K | 2.88 |
| F157A | -5.51 |
| A35C | 65.6 |
| T6C | 82.4 |
| R98L | 72.9 |
| V100E | -13.6 |
| S26K | 58.4 |
